Published values gathered from unrelated publications.
Numbered parts are unrelated; each lists some results of a single study. Substitutions count along the parent as printed.

Study 1 — technique: RNA Bind-n-Seq; molecule type: RNA; medium: in vitro; tested at: 90 pmol; notes: 4-mer, random 30-nt RNA, single round; relative to: input library; direction: higher = stronger binding
Target: ATP-dependent RNA helicase DDX3X, helicase core (DDX3X, Homo sapiens, UniProt O00571, residues 132-607)
UniProt O00571, sequence (132-607, looked up): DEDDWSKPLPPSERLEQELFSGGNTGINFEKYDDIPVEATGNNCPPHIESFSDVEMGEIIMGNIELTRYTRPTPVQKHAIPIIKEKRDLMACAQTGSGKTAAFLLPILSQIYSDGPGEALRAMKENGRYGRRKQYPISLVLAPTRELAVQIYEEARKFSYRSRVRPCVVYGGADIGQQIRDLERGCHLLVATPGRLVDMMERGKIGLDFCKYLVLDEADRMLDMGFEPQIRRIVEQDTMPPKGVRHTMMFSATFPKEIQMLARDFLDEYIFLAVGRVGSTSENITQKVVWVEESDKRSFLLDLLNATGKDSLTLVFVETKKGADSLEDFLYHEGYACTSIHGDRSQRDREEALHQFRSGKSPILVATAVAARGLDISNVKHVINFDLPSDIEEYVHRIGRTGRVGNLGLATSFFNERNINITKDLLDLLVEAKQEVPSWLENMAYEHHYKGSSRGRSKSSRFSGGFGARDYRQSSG
With: 3 µM iPr-DMDA-PatA, 2 mM ADP, 2 mM phosphate
`ACUG` gave a 4-mer enrichment of 0.889 fold.
`AAAG` gave a 4-mer enrichment of 1.47 fold.
With `GCCC` the 4-mer enrichment was 0.912 fold.
`CCAG` gave a 4-mer enrichment of 1.03 fold.
`UCUU` gave a 4-mer enrichment of 0.895 fold.
`CCCU` has a 4-mer enrichment of 1.07 fold.
For `GCAG`, the 4-mer enrichment was 0.839 fold.
The 4-mer enrichment of `CAAC` is reported as 1.16 fold.
`CGAA` gave a 4-mer enrichment of 1.21 fold.
`AUUA` has a 4-mer enrichment of 1.28 fold.
`ACGG` gave a 4-mer enrichment of 1.18 fold.
`GCCG` has a 4-mer enrichment of 0.715 fold.
With `AGUC` the 4-mer enrichment was 1.02 fold.
For `GCGC`, the 4-mer enrichment was 0.711 fold.
For `UCCA`, the 4-mer enrichment was 1.09 fold.
The 4-mer enrichment of `ACUA` is reported as 1.14 fold.
With `GUGG` the 4-mer enrichment was 0.869 fold.
With `GUCG` the 4-mer enrichment was 0.935 fold.
For `CUGU`, the 4-mer enrichment was 0.786 fold.
For `GAUA`, the 4-mer enrichment was 1.21 fold.
`AGGG` gave a 4-mer enrichment of 1.07 fold.
`UGCC` has a 4-mer enrichment of 0.763 fold.
For `GAAU`, the 4-mer enrichment was 1.31 fold.
The 4-mer enrichment of `UCGU` is reported as 0.906 fold.
For `CGCA`, the 4-mer enrichment was 0.854 fold.

Study 2 — technique: RNA Bind-n-Seq; molecule type: RNA; medium: in vitro; tested at: 20 nM; notes: 6-mer, flanks averaged, single round; with: 150 mM KCl; relative to: input library; direction: higher = stronger binding
Target: TAR DNA-binding protein 43, full length, His tag (TARDBP, Homo sapiens, UniProt Q13148, residues 1-414)
Under “6-mer enrichment (R)”, `CGUGAC` is recorded as 0.796.
`CACUCA`: “6-mer enrichment (R)” 0.604.
`GCUGGU`: “6-mer enrichment (R)” 1.26.
`CUUACC` — result for “6-mer enrichment (R)”: 0.58.
`GUGAUG`: “6-mer enrichment (R)” 1.42.
For `GAUAGU`, “6-mer enrichment (R)” read 0.824.
For `UCGACG`, “6-mer enrichment (R)” read 0.842.
`GCUCGU` — result for “6-mer enrichment (R)”: 0.735.
For `GUUCAA`, “6-mer enrichment (R)” read 0.621.
`CCACAC`: “6-mer enrichment (R)” 0.645.
For `GCAGUG`, “6-mer enrichment (R)” read 1.63.
For `GGUUUU`, “6-mer enrichment (R)” read 0.821.
`AUACUG` — result for “6-mer enrichment (R)”: 0.645.
Under “6-mer enrichment (R)”, `AAUCUA` is recorded as 0.566.
For `AUCGGG`, “6-mer enrichment (R)” read 1.78.
`UCCUCU`: “6-mer enrichment (R)” 0.551.
`ACAUGG`: “6-mer enrichment (R)” 1.02.
`UUUUUG` — result for “6-mer enrichment (R)”: 0.807.
`CUUCGA`: “6-mer enrichment (R)” 0.563.
`UAAUAU` — result for “6-mer enrichment (R)”: 0.697.

Study 3 — target: UBE2Q1 UBC core domain (UniProt Q7Z7E8); technique: yeast two-hybrid; medium: yeast; notes: mostly zero background; relative to: not given; direction: higher = stronger interaction
B1: RNF183 RING domain (UniProt Q96D59); chain EQQGRELEAECPVCWNPFNNTFHTPKMLDCCHSFCVECLAHLSLVTPARRRLLCPLCRQPTVLASGQP
B2: RNF152 RING domain (UniProt Q8N8N0); chain ETLSQDSLLECQICFNYYSPRRRPKLLDCKHTCCSVCLQQMRTSQKDVRCPWCRGVTKLPPGFS
B3: TRIM60 RING domain (UniProt Q495X7); chain ALVNLQEESSCPICLEYLKDPVTINCGHNFCRSCLSVSWKDLDDTFPCPVCRFCFPYKSFRR
B4: TRIM37 RING domain (UniProt O94972); chain SVESIAEVFRCFICMEKLRDARLCPHCSKLCCFSCIRRWLTEQRAQCPHCRAPLQLRELVN
B5: RNF2 RING domain (UniProt Q99496); chain SPRSLHSELMCPICLDMLKNTMTTKECLHRFCADCIITALRSGNKECPTCRKKLVSKRSLR
B6: DEF8 RING domain (UniProt Q6ZN54); chain AGRLGCSLTEIHTLFAKHIKLDCERCQAKGFVCELCREGDVLFPFDSHTSVCADCSAVFHRDCYYDNSTTCPKCARLSLRK
B7: TRIM26 RING domain (UniProt Q12899); chain PLRSLEEEVTCSICLDYLRDPVTIDCGHVFCRSCTTDVRPISGSRPVCPLCKKPFKKENIRP
B8: MYCBP2 RING domain (UniProt O75592); chain TSLKQDADDMCMICFTEALSAAPAIQLDCSHIFHLQCCRRVLENRWLGPRITFGFISCPICKNKINHIVLKD
Residues (chain): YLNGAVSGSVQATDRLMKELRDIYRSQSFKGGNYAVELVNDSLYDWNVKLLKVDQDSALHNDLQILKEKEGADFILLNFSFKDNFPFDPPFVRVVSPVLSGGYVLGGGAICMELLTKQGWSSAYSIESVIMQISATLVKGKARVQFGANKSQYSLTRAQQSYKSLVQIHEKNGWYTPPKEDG
Under “lacZ reporter activity”, `B1 (RNF183 RING domain)` is recorded as 0.
For `KPDKMEETLTCIICQDLLHDCVSLQPCMHTFCAACYSGWMERSSLCPTCRCPVERICKNH (CHFR RING domain (UniProt Q96EP1))`, “lacZ reporter activity” read 0.
Under “lacZ reporter activity”, `B2 (RNF152 RING domain)` is recorded as 0.
Under “lacZ reporter activity”, `RYRQMEERITCPICIDSHIRLVFQCGHGACAPCGSALSACPICRQPIRDRIQIF (MIB2 RING domain (UniProt Q96AX9))` is recorded as 0.
Under “lacZ reporter activity”, `QVQSRTKIEECVVCSDKKAAVLFQPCGHMCACENCANLMKKCVQCRAVVERRVPFI (MIB1 RING domain (UniProt Q86YT6))` is recorded as 0.
For `B3 (TRIM60 RING domain)`, “lacZ reporter activity” read 0.
`B4 (TRIM37 RING domain)`: “lacZ reporter activity” 0.
`B5 (RNF2 RING domain)` — result for “lacZ reporter activity”: 0.
`B6 (DEF8 RING domain)`: “lacZ reporter activity” 0.
Under “lacZ reporter activity”, `B7 (TRIM26 RING domain)` is recorded as 0.
Under “lacZ reporter activity”, `B8 (MYCBP2 RING domain)` is recorded as 0.

Study 4 — technique: RNA Bind-n-Seq; molecule type: RNA; medium: in vitro; tested at: 365 nM; relative to: no-protein control; direction: higher = stronger binding
Target: RNA binding protein fox-1 homolog 2, RRM domain, GST-SBP tag (RBFOX2, Homo sapiens, UniProt O43251-10, residues 100-194)
Notes: natural RNA segment, single round, ends assumed
Construct (chain): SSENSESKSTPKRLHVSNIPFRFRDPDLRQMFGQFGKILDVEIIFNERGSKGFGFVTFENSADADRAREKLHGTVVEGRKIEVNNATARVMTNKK
`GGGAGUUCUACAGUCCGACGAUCACAUGGAGCUCUUCCAUUUCGUUUAGCUGAAUAAUGAGUUGUUCCUAGAGGAGACAGCCUGUCUCUCCUUGUUGCCCCCAAAGCCCAUGCCCUGCCGUGGUGGCAGCUGGUGGAAUUCUCGGGUGCCAA` — result for “RBNS enrichment (R)”: 0.265.
For `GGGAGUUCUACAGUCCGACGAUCUUGGAAUCUGUGGUGAAAAAUAAUUUUCUGAUUUCCAAAUACAUUAAGAGCAUUAAAUGAAUAUUAAUCACCUUUAAAGUCUUUUAGAAAAGGACUUGUAUUGGUUUUUGUGGAAUUCUCGGGUGCCAA`, “RBNS enrichment (R)” read 0.458.
`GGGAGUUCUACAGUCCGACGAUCCUGUUUGUGGUAGGAGAUAACCAGUCUUGUUUGUUUCUUACAUGGCAUUCCUUUGUUGUCCUGGGAUGGUGAGGUAUGUUUAUGGGAAAUGAGCAGAGGCCUGUAGGUAGUGGAAUUCUCGGGUGCCAA` — result for “RBNS enrichment (R)”: 0.445.
For `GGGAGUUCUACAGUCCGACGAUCCAGCAGAAAUAGAUAGAUGUGCUGUUGCCACUGGACUGAUGAAGGUGGCUGUCUUGGAACUGGGAGACAGGUCCUCAGAGGUGCACUCAGGCAACAGGACAGCCAUCUCUUGGAAUUCUCGGGUGCCAA`, “RBNS enrichment (R)” read 0.597.
`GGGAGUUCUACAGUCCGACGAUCUCUGCAUAUCAUCUUUCCCACCUAAAAAUGUCUGAAUGCUUACACAAAUAAAUUUUAUAACACGCUUUUUUGCAUACUCCUUGAAAUGUGACUCUUCAGAGGACAGGGCAUGGAAUUCUCGGGUGCCAA`: “RBNS enrichment (R)” 0.67.
Under “RBNS enrichment (R)”, `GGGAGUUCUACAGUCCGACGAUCUUCGAGCUACUUCAUCUGCAUAAGGAAAUCCUCAAUGUAGGUGAGUCAGGUCUGUUCCCCAACUGAAAGGGCUGUAAAAGAAUGGAUUAAUGUUUAGCUCUCACAAAGAGUGGAAUUCUCGGGUGCCAA` is recorded as 0.541.
For `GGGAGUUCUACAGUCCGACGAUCCCCAGCCCCUGCGUUAAGGUCCCUGGAGAGGUGGCGUCAGUGGGGGUGAGGAAGGGCAUCUUCCUGACUCCUCUGCCCAGUGCUGGAAGGAGCAUGCCUGGGUUAGUGGGUGGAAUUCUCGGGUGCCAA`, “RBNS enrichment (R)” read 3.02.
`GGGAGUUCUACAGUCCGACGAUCGGUUCCAGUAAUAAGAGUUUUCGAAUAUUUUAAGUAUAACAUCAUGUGAAAAAGACAGGAGAGGUGGAAACUCAGGAGAGAAGGGAAAUACAGCUGGCUGUCUACUACUCUGGAAUUCUCGGGUGCCAA`: “RBNS enrichment (R)” 0.47.

Study 5 — target: CCNB3, cyclin fold, Cln2 fusion (human); technique: yeast growth competition, sequencing; medium: yeast; notes: weak parent motif; relative to: not given; direction: higher = stronger binding
Starting sequence: SAMHD1 docking peptide (human); ASKSRVQLFKDDP; partner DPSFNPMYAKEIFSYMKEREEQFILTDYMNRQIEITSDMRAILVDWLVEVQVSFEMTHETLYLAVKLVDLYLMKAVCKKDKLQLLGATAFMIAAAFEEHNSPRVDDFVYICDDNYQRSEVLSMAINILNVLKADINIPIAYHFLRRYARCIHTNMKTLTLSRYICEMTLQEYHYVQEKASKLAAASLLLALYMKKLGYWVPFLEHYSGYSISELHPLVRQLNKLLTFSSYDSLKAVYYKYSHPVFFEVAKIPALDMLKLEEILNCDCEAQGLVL
`F9A` — result for “normalised enrichment score”: 0.0567.
`K3W` — result for “normalised enrichment score”: 0.106.
Under “normalised enrichment score”, `Q7D` is recorded as -0.274.
Under “normalised enrichment score”, `S4A` is recorded as 0.107.
Under “normalised enrichment score”, `K10D` is recorded as -0.0377.
`F9V` — result for “normalised enrichment score”: 0.117.
`D11F` — result for “normalised enrichment score”: 0.297.
`L8W` — result for “normalised enrichment score”: 0.189.
Under “normalised enrichment score”, `Q7C` is recorded as -0.121.
`R5K` — result for “normalised enrichment score”: 0.0168.
`R5C`: “normalised enrichment score” 0.226.
`S4Q` — result for “normalised enrichment score”: -0.136.
Under “normalised enrichment score”, `S4R` is recorded as 0.0343.
`K3H` — result for “normalised enrichment score”: 0.0526.
`D11A`: “normalised enrichment score” 0.168.
Under “normalised enrichment score”, `D11G` is recorded as 0.417.
`F9L` — result for “normalised enrichment score”: 0.264.
For `Q7R`, “normalised enrichment score” read 0.296.
`D12Q`: “normalised enrichment score” 0.00124.

For quick reference, copied from above (study 1):
`ACUG` gave a 4-mer enrichment of 0.889 fold.
`AAAG` gave a 4-mer enrichment of 1.47 fold.
With `GCCC` the 4-mer enrichment was 0.912 fold.
`CCAG` gave a 4-mer enrichment of 1.03 fold.
`UCUU` gave a 4-mer enrichment of 0.895 fold.
`CCCU` has a 4-mer enrichment of 1.07 fold.
For `GCAG`, the 4-mer enrichment was 0.839 fold.
The 4-mer enrichment of `CAAC` is reported as 1.16 fold.
`CGAA` gave a 4-mer enrichment of 1.21 fold.
`AUUA` has a 4-mer enrichment of 1.28 fold.
`ACGG` gave a 4-mer enrichment of 1.18 fold.
`GCCG` has a 4-mer enrichment of 0.715 fold.
